Published values gathered from unrelated publications.
Parts stem from different laboratories: compare values within a part only.

Block 1
Target: Histone acetyltransferase KAT6A, winged helix 1, GST fusion (KAT6A, Homo sapiens, UniProt Q92794, residues 1-85)
Method: protein binding microarray
Molecule type: double-stranded DNA, one strand shown
Sample: in vitro
Tested at: not given
Setting: 8-mer, flanks averaged, mean of 2 arrays, mostly near background
Baseline: not given
Direction: higher = stronger binding
Measurement: E-score
Construct (chain): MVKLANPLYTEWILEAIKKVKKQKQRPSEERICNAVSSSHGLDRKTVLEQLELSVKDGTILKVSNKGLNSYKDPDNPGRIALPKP
TGGCCTAA: -0.196
CGCAGGCC: 0.22
CTGCCAAC: -0.206
GCCTCCGA: 0.0195
AGAGAACA: -0.117
CGCGATAG: 0.24
CTACACCA: -0.243
TCTGCGAA: -0.138
AAACTGGG: -0.34
CTGGGGAA: -0.19
ATAAGCCA: -0.252
CAACTGGA: -0.24
CTCTCCCA: -0.221
GATTGTGC: 0.0348
AGGTCTGG: -0.0541
GAGTACGC: 0.107
ATAAGCTG: -0.153
CGATAGCG: 0.302
ATGGCCGG: 0.118

Block 2
Target: Protein max, full length (MAX, Homo sapiens, UniProt P61244-2, residues 1-151)
Method: protein-binding microarray
Molecule type: double-stranded DNA, one strand shown
Sample: in vitro
Tested at: not given
Setting: k-mer, scored over probes, only values ≥0.25
Direction: higher = stronger binding
Measurement: E-score
CACGAGGG: 0.471
ATCCACAT: 0.379
ATCGCACG: 0.346
GCGTGTCA: 0.398
CACGTTCG: 0.296
ATGTGCAC: 0.368
CACGTGCC: 0.495
CATCTGCA: 0.264
CCCCGCCC: 0.265
ATGCGCTC: 0.289
CATGCCGG: 0.364
GGTGTGCA: 0.29
GCGTGGAA: 0.401
AGGTGGCA: 0.251
GTGACTGA: 0.292
CGTGAAAC: 0.304
ACGAGACA: 0.288
GTGGGACA: 0.343

Block 3
Target: RNA binding protein fox-1 homolog 2, RRM domain, GST-SBP tag (RBFOX2, Homo sapiens, UniProt O43251-10, residues 100-194)
Method: RNA Bind-n-Seq
Molecule type: RNA
Sample: in vitro
Tested at: 365 nM
Setting: natural RNA segment, single round, ends assumed
Baseline: no-protein control
Direction: higher = stronger binding
Measurement: RBNS enrichment (R)
Shared flanks, not repeated: GGGAGUUCUACAGUCCGACGAUC … UGGAAUUCUCGGGUGCCAA
Residues (chain): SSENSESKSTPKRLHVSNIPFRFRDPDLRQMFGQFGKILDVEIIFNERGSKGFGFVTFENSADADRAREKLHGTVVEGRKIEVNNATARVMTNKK
GAGGGAGUGUUGGUUUUUUGUUUUUGUUUUUUUAACAUGUAUGAAACUGACAUCUUCUCAAAUCUUGUUCCACCCCCCUCUGGAAGCCCCCAUCACCCACCCCUGCUAUG: 0.701
CCAAACAACCAAAUGGCUGGGCAGCUUGUUGUCACGGAUAAAUGAUAUAAAAUGUAACCACUGAACAUUUGACAACUUUGUUGCAUUAUCAUUUUUAAAAAAAGAUGAAG: 0.6
AGCUAUAAAAGUGUCUUAGAGAGAAUACUCAUCUAGUAAAUAGUGUGAGUUUCCAAUGUAUUAUCUUAUAUCAAGUAAGAAAUCAAGUAUAUAUCAGCAGAGGCUUACCA: 0.328
CAAUUUAGUAUAAUAUGCAGUUCCUGUGCCUCCAGACUAUGCAGCUCAUCACCCUAGGUUCUACAGGAAAUACAGAGAUGAACAACUUUGCCUUCAAAAAUGUGCUGCCU: 0.419
UUAAACAAGAGAGAUAAGAGGAAAAUGCAACCACCACAUCUGACUUGCCCAAUGUAGACUUUCCUUUAUUAGAUUGAAGUACACAACCUAAUAUGAUAUAUUAUUUUGUA: 0.604
GCAAAAAUUAACCUUUUUUUUCCAGUCACAGUAUUUGUGAAAAGUAAUGAGCCAUAGUACCCAUUAAUGUUAAAGAAUAUUAAAGCAUGGAGAGGAACAUGAGGAACAAU: 1.31
CCUGCAAGGGACAGGAAGGUCUGAUUUGCAGGAUUUUUAGAGCAUUAAAAUAACUAUCAGGCAGAAGAAUCUUUCUUCUUGCCUAGGAUUUCAGCCAUGUGCGUGCGCUC: 0.487
GUGUGUGUGUGUGUGUGUGUGUGCGUGCAUGUGUGUAUUAAGAGGGAUGACAUCCUGUUUAUUUUCCCAUUUGGAUGCCACAUGGUAUCCAAAGCUGGUAGAGCAGCUAU: 1.69
GAAAGAAAAUGUAUUAUUGUGUGUAUCAUUUGUGUGCUUUCAUAGCAAAAAAUGUGUUUCAGUUGUACUGUAACCAAAAAUUCUGUCAAUAAAAUAUUUGAGGUUUUCCU: 0.547
UCUCCUUCUUGCAGGACACAAAUGAUAUCGCUUAGUCAUAAGUGUGGUAGACUGGAUCCUGACCAGAAGGAGGUCUGAUAUAAUAUCCAUCCAGACAAGAAAUCAACAUG: 0.374
AAAAGCAAUUACUACAAAUGGAUGACACAUUUAAUGAACACAAUUUUAUUUUUUUUCUGUAACUGUGCUUGUUGAAUGUCAAUCAUAUUUAAAGGGAAUGACUUUGAAGU: 0.668
AUGGGCCACCUCUUCCUCCAAGCCCAGAUGCAGAGAUGGUCAUGGGCAGCUGGAGGGUAGGCUCAGAAAUGAAGGGAACCCCUCAGUGGGCUGCUGGACCCAUCUUUCCC: 0.222

Block 4
Target: Sal-like protein 4, full length isoform B (SALL4, Homo sapiens, UniProt Q9UJQ4-2, residues 1-616)
Method: universal PBM
Molecule type: double-stranded DNA, one strand shown
Sample: in vitro
Tested at: not given
Setting: 8-mer, flanks averaged, mean of replicates
Direction: higher = stronger binding
Measurement: E-score
Residues (chain): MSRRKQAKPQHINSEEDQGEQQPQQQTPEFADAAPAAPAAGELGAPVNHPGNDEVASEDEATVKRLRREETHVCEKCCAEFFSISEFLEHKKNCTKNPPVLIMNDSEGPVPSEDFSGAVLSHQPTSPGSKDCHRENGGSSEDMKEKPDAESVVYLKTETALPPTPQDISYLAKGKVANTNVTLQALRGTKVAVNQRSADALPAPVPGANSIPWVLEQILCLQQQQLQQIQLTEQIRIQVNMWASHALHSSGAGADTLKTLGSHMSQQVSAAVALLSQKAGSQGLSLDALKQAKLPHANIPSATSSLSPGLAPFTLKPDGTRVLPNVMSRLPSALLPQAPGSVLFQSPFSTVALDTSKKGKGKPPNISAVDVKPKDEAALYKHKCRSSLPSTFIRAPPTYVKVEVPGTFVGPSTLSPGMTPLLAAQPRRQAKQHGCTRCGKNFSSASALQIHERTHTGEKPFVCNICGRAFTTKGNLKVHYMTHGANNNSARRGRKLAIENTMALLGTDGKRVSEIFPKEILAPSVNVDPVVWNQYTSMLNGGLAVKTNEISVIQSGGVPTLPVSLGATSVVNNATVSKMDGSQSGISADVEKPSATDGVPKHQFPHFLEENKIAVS
AAAATCAA: 0.262
GAATAGTA: 0.279
ACGGTCGC: -0.315
GAGAGTAC: -0.0759
GGCCAACC: -0.278
CAACACTG: 0.117
GCATCCAA: -0.105
GGGATCGA: -0.154
CCATCATC: 0.117
ACTCGTAC: -0.0487
CTATGTGA: 0.0725
CCTTAGAC: -0.0326
ATTGCTGA: 0.158

Block 5
Target: Phosphate system positive regulatory protein PHO4, full length, GST-tagged (PHO4, Saccharomyces cerevisiae, UniProt P07270, residues 1-312)
Method: competition protein-binding microarray
Molecule type: double-stranded DNA, one strand shown
Sample: in vitro
Tested at: 2 µM
Setting: whole 60-bp probe, lowest competitor level
Together with: Cbf1 competitor, 0.05 µM
Direction: higher = stronger binding
Measurement: fluorescence intensity
Shared flanks, not repeated: … GTCTTGATTCGCTTGACGCTGCTG
Target sequence (chain): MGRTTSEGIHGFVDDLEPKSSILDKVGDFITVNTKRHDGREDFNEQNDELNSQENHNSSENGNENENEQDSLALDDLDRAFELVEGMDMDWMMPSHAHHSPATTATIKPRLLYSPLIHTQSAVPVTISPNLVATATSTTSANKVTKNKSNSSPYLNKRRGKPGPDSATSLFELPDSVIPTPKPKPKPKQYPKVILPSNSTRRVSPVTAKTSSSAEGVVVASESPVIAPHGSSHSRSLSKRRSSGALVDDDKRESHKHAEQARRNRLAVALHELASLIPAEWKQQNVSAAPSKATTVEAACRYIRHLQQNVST
CATACCCAACCTTGTCATGTGGGTGAAGATATTTGT: 10400 a.u.
AAAGCGGTAATTTGGTAAGTGGGTGCAGATATCTAT: 4070 a.u.
GTATAGTATCCACTTCGTGTGACAGTACTATAATCG: 6170 a.u.
GAAGGAGCGGGGCGTCATGCTAACCAGGAATGGAAG: 5360 a.u.
AAAAGTTTTGAAAAACACGTGCCGATGATTTTTTGT: 17600 a.u.
GAAGAAAAACCGATGCACGTGACTCGTTAGTCAAAA: 16000 a.u.
GTCTTGTCTCATTGTCACTGCACTTTCCCCACTTCA: 4650 a.u.
CATTCGTTGGTTTATTATGTGACGGTTTTTAGACTT: 4030 a.u.
CGTCCTAGTGATTTTCACGTGACTTCCATGAGGAAG: 10300 a.u.
GTCTTGTCTCATTGAGTTGTGGGTGTCCCCACTTCA: 4730 a.u.
GTATGCACTTGAAACAACGTGTAGACCATCAAGTTG: 11700 a.u.
ATCTGTGCCAACAAGTACATGACAACTGTCTCCGGT: 4460 a.u.
TAGCCTTAAATCCTGAACGTGGAGGCGATTATTTCA: 11800 a.u.
CTAACGAAGGTTTGTCACTAGACTTACAAGCCAAGT: 3010 a.u.
GTTCCATTCACCGTTGTAATGTGCAGCCCCGTCCTA: 4370 a.u.
CTTCTGTAAATTTGCATGGTGGGTGGACGCGCCCCG: 4500 a.u.
CGTCCTAGTGATTGCGCAGTGGGTGCCATGAGGAAG: 6520 a.u.

Block 6
Target: Fragile X messenger ribonucleoprotein 1, C-terminal low-complexity region (Fmr1, Mus musculus, UniProt P35922)
Method: RNA Bind-n-Seq
Molecule type: RNA
Sample: in vitro
Tested at: 200 nM
Setting: whole 134-nt RNA, ends assumed
Together with: 150 mM KCl
Baseline: input library
Direction: higher = stronger binding
Measurement: log2 enrichment
Shared flanks, not repeated: GGGAGUUCUACAGUCCGACGAUC … UGGAAUUCUCGGGUGUCAAGG
GUCCUGUGCUACACAUCGUAUGUACCGAAUCGGGGAAAAAGGGGAAAAAGGGGUGGGGAAAGUAUUAUGUUACGCCGUUCGGAUCUGCAC: 0.35
CAAGUCCUGUGCUACACAUCGUAUGUACCGAAUCGGGCCCGGCCCGGGGCCCGGGGAAAGUAUUAUGUUACGCCGUUCGGAUCUGCACUU: -0.626
ACCAUGCAGGUGGGCAUAUUUGGGAAGUGGGGCAAGGGGGGGAUAGGGAGGGGGGUAACACUUUGGGAACAGGUGGUCCCAGGUCGUUUC: 0.634
GUCCUGUGCUACACAUCGUAUGUACCGAAUCGGGGAAAGGGGUUUGGGGUUUUUGGGGAAAGUAUUAUGUUACGCCGUUCGGAUCUGCAC: 0.62
GCAGGAAGUAAAAACAAAUGGAAAUGCUUCGGAUAGUGGCAGGGGUGGGGGUUGCUAAGGAAAGGGUGGGAUGGGAGUGUGUAAAGAGUU: 0.345
CCUCAAGUCCUGUGCUACACAUCGUAUGUACCGAAUCGGAAGGGAAGGGAAGGAAAGUAUUAUGUUACGCCGUUCGGAUCUGCACUUCCA: -0.317
UUGUGGAAAGGAGGAGAACCCCUGCUGAAAUUCGAGAGGAGUUUGAGCGGCUGCAGAGAGAGAGAGAAGAGAGGAGAUUGCAGCAGCGAA: -1.14
UCCUGUGCUACACAUCGUAUGUACCGAAUCGGCCCCCCGGGCCCCCCGGGGCCCCCCGGGAAAGUAUUAUGUUACGCCGUUCGGAUCUGC: -0.496
ACCAUGCAGGUGGGCAUCUUUGGGAAGUGGGGCAAGGGGGGGAUAGGGAGGGGGGUAACACUAUGGGAACAGGUGGUCCCAGGUCGUUUC: 0.64
CCUCAAGUCCUGUGCUACACAUCGUAUGUACCGAAUCGGUUGGGUUGGUUGGAAAGUAUUAUGUUACGCCGUUCGGAUCUGCACUUCCAG: 0.291

Excerpt of the above (block 5):
CGTCCTAGTGATTTTCACGTGACTTCCATGAGGAAG: 10300 a.u.
CATTCGTTGGTTTATTATGTGACGGTTTTTAGACTT: 4030 a.u.
GTATGCACTTGAAACAACGTGTAGACCATCAAGTTG: 11700 a.u.
CGTCCTAGTGATTGCGCAGTGGGTGCCATGAGGAAG: 6520 a.u.
GTCTTGTCTCATTGTCACTGCACTTTCCCCACTTCA: 4650 a.u.
GAAGGAGCGGGGCGTCATGCTAACCAGGAATGGAAG: 5360 a.u.
GAAGAAAAACCGATGCACGTGACTCGTTAGTCAAAA: 16000 a.u.
TAGCCTTAAATCCTGAACGTGGAGGCGATTATTTCA: 11800 a.u.
GTTCCATTCACCGTTGTAATGTGCAGCCCCGTCCTA: 4370 a.u.
GTATAGTATCCACTTCGTGTGACAGTACTATAATCG: 6170 a.u.
GTCTTGTCTCATTGAGTTGTGGGTGTCCCCACTTCA: 4730 a.u.
